Measured values gathered from unrelated publications.
Lines come from different studies, so protocols differ. ± gives the spread as reported.

Structure (SMILES) | technique | sample | pH | temperature | logP
CC1(C)OB(c2ccc(COC(=O)N(Cc3cccc(CN4CCCCC4)c3)[c-]3cccc3)cc2)OC1(C)C.[Fe+2].c1cc[cH-]c1 | RP-TLC | MOPS/acetonitrile | pH 7.4 | – | > 6.26
Fc1ccc2nc3c4cccnc4c4ncccc4c3nc2c1.[Cl-].[Cl-].[Ru+2].c1ccncc1.c1ccncc1.c1ccncc1.c1ccncc1 | – | n-octanol/water | – | – | -1.07 ± 0.02
CC[P+](CC)(CC)[Au-][S][C@@H]1O[C@H](COC(C)=O)[C@@H](OC(C)=O)[C@H](OC(C)=O)[C@H]1NC(C)=O | – | n-octanol/water | – | – | 0.26
C1=CCCC=CCC1.C1=CCCC=CCC1.[Cl][Hg-]([Cl])[Cl].[Cl][Hg-]([Cl])[Cl].[Pt+][c]1ccccc1P(=Nc1ccccc1)(c1ccccc1)c1ccccc1.[Pt+][c]1ccccc1P(=Nc1ccccc1)(c1ccccc1)c1ccccc1 | – | n-octanol/phosphate buffer | pH 7.00 | – | -0.26
COCCOCCOCCOc1ccc(/C=C/C2=[N+]3C(=C(c4cc(OC)cc(OC)c4)c4c(C)c(I)c(/C=C/c5ccc(OCCOCCOCCOC)cc5)n4[B-]3(F)F)C(C)=C2I)cc1 | – | octanol/HEPES buffer | pH 7.4 | room temperature | 0.89
CC1COC2=C1C(=O)C(=O)c1c2ccc2c1C(OC(=O)CNC(=O)C(N)CO)CCC2(C)C (mixture of isomers) | – | n-octanol/water | – | 25 °C | 1.14
COCCOCCOCCOc1ccc(/C=C/c2c(I)c(C)c3n2[B-](F)(F)[N+]2=C(C)C(I)=C(C)C2=C3c2cc(OC)cc(OC)c2)cc1 | – | octanol/HEPES buffer | pH 7.4 | room temperature | 0.72
CC1COC2=C1C(=O)C(=O)c1c2ccc2c1C(OC(=O)CNC(=O)C(N)CCC(=O)O)CCC2(C)C (mixture of isomers) | – | n-octanol/water | – | 25 °C | 2.88
O=C([O-])CN(CCN(CC(=O)[O-])Cc1cc(CCC(=O)NCCCCCC(=O)NCCCC[C@H](NC(=O)N[C@@H](CCC(=O)O)C(=O)O)C(=O)O)ccc1[O-])Cc1cc(CCC(=O)O)ccc1[O-].[68Ga+3] | – | n-octanol/PBS | pH 7.4 | – | -3.89 ± 0.16

Some of these lines once more:
Structure (SMILES) | technique | sample | pH | temperature | logP
Fc1ccc2nc3c4cccnc4c4ncccc4c3nc2c1.[Cl-].[Cl-].[Ru+2].c1ccncc1.c1ccncc1.c1ccncc1.c1ccncc1 | – | n-octanol/water | – | – | -1.07 ± 0.02
